# Published values collected from several papers.
# Numbered parts are unrelated; each lists some results of a single study. Substitutions count along the parent as printed.

# Set 1
# Target: Fragile X messenger ribonucleoprotein 1, C-terminal low-complexity region (Fmr1, Mus musculus, UniProt P35922)
# Technique: RNA Bind-n-Seq
# Form: RNA
# Medium: in vitro
# Concentration: 200 nM
# Notes: whole 134-nt RNA, ends assumed
# Added: 150 mM KCl
# Relative to: input library
# Reading: higher = stronger binding
# Constant ends, left off below: GGGAGUUCUACAGUCCGACGAUC … UGGAAUUCUCGGGUGUCAAGG
Strand,log2 enrichment
CUGUGCUACACAUCGUAUGUACCGAAUCGGGGAAAAAAAGGGGAAAAAAAGGGGAAAGGGGAAAGUAUUAUGUUACGCCGUUCGGAUCUG,-0.347
UCCUCAAGUCCUGUGCUACACAUCGUAUGUACCGAAUCGGGGAGGAGGAGGGAAAGUAUUAUGUUACGCCGUUCGGAUCUGCACUUCCAG,0.394
UCCUGUGCUACACAUCGUAUGUACCGAAUCGGGAAAAAAGGGGAAAAAAGGGAAAAAAGGAAAGUAUUAUGUUACGCCGUUCGGAUCUGC,-0.417
CUCAAGUCCUGUGCUACACAUCGUAUGUACCGAAUCGGAAGGGAAGGGGAAGGGAAAGUAUUAUGUUACGCCGUUCGGAUCUGCACUUCC,0.535
UUAAUGAUAUAAGUAGAGAGUAGUAUCCUGGUGGAGUUGUAACCACUAUUUUUGUUUUCUAGAUCCCUAUGGUUCAGGAGGCCAGAAAUU,-0.715
UAACUUUAGAGGAGGAUCUGAUGGAUAUGGCAGUGGACGUGGAUUUGGGGAUGGCUAUAAUGGGUAUGGAGGAGGACCUGCAGGUGGCAA,0.0296
UGGCUUUCACCCCCAACCAGUGACCAAAGACUUGACCACUCAAAGUCCAGCUCCCCAGAACACUGCUCGACAUGGACACCGGUGUGAUUG,0.662
UGUGCUACACAUCGUAUGUACCGAAUCGGGGUUUUUGGGGUUUUUUUGGGGUUUUUUUGGGGAAAGUAUUAUGUUACGCCGUUCGGAUCU,0.535
UGGCCCUGGUGGCAUGCGGGGAGGAAGAGGUAGCCUCAUGGAUCGUGGUGGUCCCGGUGGAAUGUUCAGAGGUGGCCGUGGUGGAGACAG,0.0288
GCAGGAAGUAAAAACAAAUGGAAAUGCUUCGGAUAGUGGCAGGGGUGGGGGUUGCUAAGGACAGGGUGGGAUGGGAGUGGGUAAAGAGUU,0.175
CUCAAGUCCUGUGCUACACAUCGUAUGUACCGAAUCGGGAAGGGAAGGGAAGGAAAGUAUUAUGUUACGCCGUUCGGAUCUGCACUUCCA,-0.121
UCAAGUCCUGUGCUACACAUCGUAUGUACCGAAUCGGCCCGGCCCGGGCCCGGGGAAAGUAUUAUGUUACGCCGUUCGGAUCUGCACUUC,-0.62
AAGUCCUGUGCUACACAUCGUAUGUACCGAAUCGGGUUUGGGUUUGGGGUUUGGGGAAAGUAUUAUGUUACGCCGUUCGGAUCUGCACUU,0.837
UAACUUUAGAGGAGGAUCUGAUGGAUAUGGCAGUGGACGUGGAGUUGGGGAUGGCUAUAAUGGGUAUGGAGGAGGACCUGGAGGUGGCAA,0.378

# Set 2
# Target: RNA binding protein fox-1 homolog 2, RRM domain, GST-SBP tag (RBFOX2, Homo sapiens, UniProt O43251-10, residues 100-194)
# Technique: RNA Bind-n-Seq
# Form: RNA
# Medium: in vitro
# Concentration: 365 nM
# Notes: natural RNA segment, single round, ends assumed
# Relative to: no-protein control
# Reading: higher = stronger binding
# Constant ends, left off below: GGGAGUUCUACAGUCCGACGAUC … UGGAAUUCUCGGGUGCCAA
# Residues (chain): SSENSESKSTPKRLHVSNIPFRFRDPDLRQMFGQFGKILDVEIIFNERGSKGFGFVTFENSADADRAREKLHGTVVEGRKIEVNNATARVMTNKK
Strand,RBNS enrichment (R)
AAUAAAUCUAUUAGGGCCAGGGCCUGGAGACUGGUUCUAAAACUCACAAAUUGAGGAGUGAAAUAGGAGACUGCAUGCUGGAUUUCAUGAUGAAAAUUUAUACUUUCACA,6.14
AUUGGGACCCCAUACCGUUAGCCCUUGUAUGUAUACCAACACUGCCAAAGUAAAACAUUAGGUCAGGCAUGGUGGCUCAGGCCUGUAAUCCCAGCAUUUUGGGAGGCUGA,0.562
UGAAUUAAUCUUUUCUCUUAAUUUUUAUUAUGUACUAGUUGUAUUAAAGCUAAUGUGUUUACUUUUUCCUCUUGUGGAUUUGUAGCUGUUUAAAAUUUCAGGUGAAUUUC,0.809
AGACCACCAAAGAUUCCCUGUCCAUGACCUCUGAGGCGGGGUUACCUUGCUUGUCGGACCAAGGCAGCGAUGGUUGUGAUGAUGAUGGCUUGGUGAUAUCUGGGUAUGGC,1.3
UGACAGAAGCUGGGCAUCAGUGAUCUGUUGUGUUGGAUUAAUAGGUCCUUCCCCAAAUGGGACCUGAGGAAAUAGCAGGUGUCCAGCUGAUGUGUUGGGCCUUUUCUAGG,0.218
GCUUUAUCAGUAGCCCAGGAUAUAUUUUAUUUUUAGAAUUUUGUGAGCCAGACUUGUAUAUUCUAUUUUACAACUACAAAGGCCUCCUAAGUAUUGUACCUUCAGCGUGC,0.303
AGGGAAACGUGCCCUCUGUUUGAUCCUUGUUUUGUGACAUUUUUUUUUUUUUUUUUUUUACUCAAAGUUAACCUACCUGUAACUUUUUAAAAACUUGUAAAAUAACUGAC,0.948
GCCGUCUUCUCUUAGAAGGGGAUGCAGUACUGUACAAAGAUUGAGCUGGAUGUCGCAUUGCAUGUUUGCUGAGUCCUCCUCAUUGCUGAUGUUAGGAUCCUUCAACAGUU,29.8
AUGCAAUUCUGUUAAAAAAUGUAUUCUUCUGAAUAAAGAGAAUAUUCACUAUUUAACUGCAAACCAACCAUGGUAGUGGUCUUUUUUUGGUUGUUUGUUCUGUUUUGCAC,0.701
AUUGAAAAUGUUUAAUACAUCUCAUUAUUGACAAAAUAUGUCAUCUUGUAUUUAUUUCAAGGAAACCAAUGAAUUCUAGGUAGUAUAUUACAAGUUGGUCAAAAUAUUCC,0.901
GACCCUGCCACUGCUUCUUGCCCUGAGGUUUGGAAGCUGAGAGUUAUAGAAGCCAAUUCACCAGGAGGUAAGACAUCCCAGGCUGACAUGGGCAAAUGAAAAGGGCUAUU,0.502
UGCUAGGGUCUCCUAGCCCAGUAAGCCAAAUGGGAACUAUAAGCAGAUCAAAAUUUUACACUAGCUUAUUAGAGCCCUAUUAGUUCCUGUCCCAAGUUCUUCAGUUACAA,0.297

# Set 3
# Target: ABI1, truncated, D143A, DHFR fusion (Arabidopsis thaliana, UniProt P49597)
# Technique: DHFR PCA, dose-response
# Medium: yeast
# Notes: Hill fit, not affinity, not high confidence
# Added: (+)-ABA, dose series
# Reading: lower = more sensitive
# Starting sequence: PYL1, truncated, DHFR fusion (Arabidopsis thaliana, UniProt Q8VZS8); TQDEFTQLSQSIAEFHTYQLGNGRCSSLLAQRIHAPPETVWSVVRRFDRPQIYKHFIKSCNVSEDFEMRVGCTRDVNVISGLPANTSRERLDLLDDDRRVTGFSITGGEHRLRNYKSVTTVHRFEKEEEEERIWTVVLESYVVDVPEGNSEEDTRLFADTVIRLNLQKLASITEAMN
Change,ABA EC50
R155P,3.85 µM
I57W,0.764 µM
R74A,0.0287 µM
R98P,649 µM
F103A,126 µM
N165V,4.45 µM
V137G,13.6 µM
P50Y,406 µM
T101P,2480 µM
D153P,1950 µM
S140L,83.7 µM
V137F,18.9 µM
L112D,0.00815 µM

# Set 4
# Target: CCND2, cyclin fold, Cln2 fusion (human)
# Technique: yeast growth competition, sequencing
# Medium: yeast
# Notes: weak parent motif
# Relative to: not given
# Reading: higher = stronger binding
# Starting sequence: RBL1 docking peptide (human); GSAKRRLFGEDPP
Change,normalised enrichment score
GMAKRRLFGEDPP [S2M],0.149
GSAKRRLFGEFPP [D11F],0.233
GSAKRRLFGQDPP [E10Q],-0.18
GSAKRPLFGEDPP [R6P],0.0316
GRAKRRLFGEDPP [S2R],0.223
GSAERRLFGEDPP [K4E],-0.262
GSMKRRLFGEDPP [A3M],-0.359
GSAKRRLFGEPPP [D11P],-0.174
GSAKRRLFKEDPP [G9K],0.156
GSAKRRLFGSDPP [E10S],0.483
GSIKRRLFGEDPP [A3I],-0.018
GSAKRSLFGEDPP [R6S],0.156
GFAKRRLFGEDPP [S2F],-0.209
GSAKRRLEGEDPP [F8E],-0.283
GSAKRRPFGEDPP [L7P],0.385
GSAKRRLFGEDPY [P13Y],0.0361
GSAKWRLFGEDPP [R5W],0.13
GSAKRRLFGEEPP [D11E],0.489
MSAKRRLFGEDPP [G1M],-0.183
GLAKRRLFGEDPP [S2L],-0.0894
GSAKRRLDGEDPP [F8D],0.661
GHAKRRLFGEDPP [S2H],0.323
GQAKRRLFGEDPP [S2Q],0.284
GSAKRRLFGEDPH [P13H],0.79
GSAKRKLFGEDPP [R6K],0.507

# Excerpt of the above (set 4):
Change,normalised enrichment score
GSAKWRLFGEDPP [R5W],0.13
GSAKRRLFGEEPP [D11E],0.489
MSAKRRLFGEDPP [G1M],-0.183
GLAKRRLFGEDPP [S2L],-0.0894
GSAKRRLDGEDPP [F8D],0.661
